Measured values collected from several papers.
Compare with care: the assays were run in different laboratories. Values joined by “and” are separate records of one study, mostly repeats; a detail may differ.

`CCn1cc(-c2cc(Cn3ccnc3)cc3c2CCN([C@H](c2cc(OC)ccn2)C2CC2)C3=O)c(C(F)(F)F)n1` has an EC50 of greater than 30000 nM (JHH5; cell growth; 120 h).
`CCc1cnc(N2CCC(c3nc(COc4ccc(-n5cnnn5)cc4)cs3)CC2)nc1` — result for “log2 fold change”: -0.116 (HEK293T; RNA-seq, item: PON2 mRNA; 10 µM, 6 h; reference: vehicle).
For `CCN1CCN(Cc2ccc(Nc3ncc(F)c(-c4cc(F)c5nc(C)n(C(C)C)c5c4)n3)nc2)CC1.CS(=O)(=O)O`, the inhibition was 88.7% (BT-16; cell viability, MTT; 10 µM, 72 h).
`Cn1cc(-c2ccc(-c3cncc(Cl)c3N3CCC4(CCNC4=O)CC3)cc2)cn1` — result for “log2 fold change”: 3.98 (COLO 205; gene expression, microarray, item: OPTN mRNA; concentration not given, 6 h; reference: untreated cells).
`CC(C)(C)C(=O)OCOP(=O)(COCCn1cnc2c(N)ncnc21)OCOC(=O)C(C)(C)C` has an inhibition of 85.3% (BT-16; cell viability, MTT; 10 µM, 72 h).
The selectivity ratio of `O=c1[nH]cc(F)c(=O)[nH]1` is reported as 0.08 (C32; SRB; reference: IC50 HaCaT over IC50 C32).
`CC(C)C[C@H](NC(=O)[C@H](CO)NC(=O)[C@@H](NC(=O)[C@@H]1CCCN1C(=O)[C@@H](N)CCCCN)C(C)C)C(=O)N[C@@H](CO)C(=O)N[C@@H](Cc1ccc(O)cc1)C(=O)N[C@@H](CCCNC(=N)N)C(=O)NCC(=O)NCC(=O)N[C@H](CC(C)C)C(=O)NCC(=O)N[C@H](C)C(=O)N[C@H](CO)C(=O)N[C@H](Cc1c[nH]c2ccccc12)C(=O)N[C@H](Cc1c[nH]cn1)C(=O)N[C@H](CCCNC(=N)N)C(=O)N[C@@H](Cc1ccc2ccccc2c1)C(=O)N[C@@H](CCCNC(=N)N)C(=O)N[C@@H](CCCNC(=N)N)C(N)=O` — result for “optimal migration-promoting concentration”: 0.5 µM (SUP-T1; Transwell migration; 3 h, 37 °C).
The EC50 of `CCn1cc(-c2cc(Cn3ccoc3=N)cc3c2CCN([C@@H](C)c2cc(OC)ccn2)C3=O)c(C(F)(F)F)n1` is reported as 2060 nM (C32; cell growth, inhibitor; 120 h).
`CCOc1cc(-c2nnc(C)n2C)ccc1Nc1ncc2cc(C)nc(NCC(C)(C)C)c2n1` gave a GI50 of 42 nM (CAL-51; cell growth; 72 h).
The viability of `Cc1cccc(-c2[nH]c(CNc3ccccc3F)nc2-c2ccc3ncnn3c2)n1` is reported as 105% and 100% and 67% (MM1.S; XTT; 0.2 µM).
With `CC(C)NCC(O)c1ccc(O)c(O)c1` (stereo not shown) the sarcomere length was 1.8 µm (mouse ventricular cardiomyocytes; dose not given, 0.319 s).
For `C=C1CN(S(=O)(=O)c2ccc(C)cc2)CCCN(Cc2ccccc2)CCCN(S(=O)(=O)c2ccc(C)cc2)C1`, “HA-FLuc protein level” read 0.325 (HEK293 expressing HA-FLuc; western blot; total extract; concentration not given, unit not given; reference: mock).
The inhibition of `COc1ccc(/C=C\c2cc(OC)c(OC)c(OC)c2)cc1OP(=O)(O)O` is reported as 90.4% (BT-16; cell viability, MTT; 10 µM, 72 h).
`CC(C)c1nc(CN(C)C(=O)N[C@@H](CCN2CCOCC2)C(=O)N[C@H](CC[C@H](Cc2ccccc2)NC(=O)OCc2cncs2)Cc2ccccc2)cs1` has a maximal efficacy of 82% (ΔE-expressing cells; ΔE mislocalization, high-content imaging).
`CC(=O)c1nn(-c2ccc(Cl)cc2)/c(=N/N=C(\C)c2ccc(NC(=O)c3ccccc3)cc2)s1` has a toxicity of 97% and 96.2% (HepG2; 0.625 µM).
With `Nc1n[nH]c2cc(I)ccc12` the GI50 was 1500 nM (Ba/F3 TEL-VEGFR1; cell growth, CCK-8).
Under autophagy flux, `CCN(CC)CCCC(C)Nc1ccnc2cc(Cl)ccc12` (stereo not shown) is recorded as “inhibited” (N27 rat dopaminergic cells; dose not given, 36 h).
For `Nc1nc(Nc2ccc(S(N)(=O)=O)cc2)nn1C(=O)c1c(F)cccc1F`, the inhibition was 92.1% (BT-16; cell viability, MTT; 10 µM, 72 h).
`Cc1cc(Nc2ncc(Cl)c(Nc3ccccc3S(=O)(=O)C(C)C)n2)c(OC(C)C)cc1C1CCNCC1` — result for “log2 fold change”: -1.88 (CLB-GE; phosphoproteomics LC-MS/MS, item: EEF2K phosphorylation; 200 nM, 60 min; reference: untreated).

Some of these lines once more:
For `C=C1CN(S(=O)(=O)c2ccc(C)cc2)CCCN(Cc2ccccc2)CCCN(S(=O)(=O)c2ccc(C)cc2)C1`, “HA-FLuc protein level” read 0.325 (HEK293 expressing HA-FLuc; western blot; total extract; concentration not given, unit not given; reference: mock).
`Cn1cc(-c2ccc(-c3cncc(Cl)c3N3CCC4(CCNC4=O)CC3)cc2)cn1` — result for “log2 fold change”: 3.98 (COLO 205; gene expression, microarray, item: OPTN mRNA; concentration not given, 6 h; reference: untreated cells).
`CCc1cnc(N2CCC(c3nc(COc4ccc(-n5cnnn5)cc4)cs3)CC2)nc1` — result for “log2 fold change”: -0.116 (HEK293T; RNA-seq, item: PON2 mRNA; 10 µM, 6 h; reference: vehicle).
